Results of several laboratories.
Each line is one published result; not all experiments were run side by side. Numbers after ± are the reported error.
DRD4: D(4) dopamine receptor (DRD4, Homo sapiens, UniProt P21917)
UniProt P21917, sequence (whole entry, looked up): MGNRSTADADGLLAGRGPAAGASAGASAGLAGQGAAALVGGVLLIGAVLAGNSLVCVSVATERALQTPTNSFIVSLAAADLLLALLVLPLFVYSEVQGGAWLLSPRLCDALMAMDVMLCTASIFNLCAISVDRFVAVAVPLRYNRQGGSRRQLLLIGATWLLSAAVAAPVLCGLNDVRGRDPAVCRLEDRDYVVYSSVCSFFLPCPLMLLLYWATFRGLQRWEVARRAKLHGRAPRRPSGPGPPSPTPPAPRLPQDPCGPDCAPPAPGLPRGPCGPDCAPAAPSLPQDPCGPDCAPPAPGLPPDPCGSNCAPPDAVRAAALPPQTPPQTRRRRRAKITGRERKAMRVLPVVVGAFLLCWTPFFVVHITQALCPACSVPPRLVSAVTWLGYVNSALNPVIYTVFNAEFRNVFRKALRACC
CNR1: Cannabinoid receptor 1 (CNR1, Homo sapiens, UniProt P21554)
UniProt P21554, sequence (whole entry, looked up): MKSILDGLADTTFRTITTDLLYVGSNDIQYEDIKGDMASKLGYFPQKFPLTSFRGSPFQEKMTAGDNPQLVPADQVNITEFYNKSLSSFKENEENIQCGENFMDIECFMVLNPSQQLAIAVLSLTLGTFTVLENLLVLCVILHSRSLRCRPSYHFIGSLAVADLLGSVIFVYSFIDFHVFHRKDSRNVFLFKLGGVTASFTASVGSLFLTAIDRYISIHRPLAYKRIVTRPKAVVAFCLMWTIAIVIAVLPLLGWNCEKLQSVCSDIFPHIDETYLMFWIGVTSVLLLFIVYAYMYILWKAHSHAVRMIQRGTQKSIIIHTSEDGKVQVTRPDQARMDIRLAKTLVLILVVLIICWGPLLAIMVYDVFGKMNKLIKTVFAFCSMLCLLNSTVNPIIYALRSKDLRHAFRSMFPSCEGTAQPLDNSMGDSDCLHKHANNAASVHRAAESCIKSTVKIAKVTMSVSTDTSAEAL
ADRA1A: Alpha-1A adrenergic receptor (ADRA1A, Homo sapiens, UniProt P35348)
UniProt P35348, sequence (whole entry, looked up): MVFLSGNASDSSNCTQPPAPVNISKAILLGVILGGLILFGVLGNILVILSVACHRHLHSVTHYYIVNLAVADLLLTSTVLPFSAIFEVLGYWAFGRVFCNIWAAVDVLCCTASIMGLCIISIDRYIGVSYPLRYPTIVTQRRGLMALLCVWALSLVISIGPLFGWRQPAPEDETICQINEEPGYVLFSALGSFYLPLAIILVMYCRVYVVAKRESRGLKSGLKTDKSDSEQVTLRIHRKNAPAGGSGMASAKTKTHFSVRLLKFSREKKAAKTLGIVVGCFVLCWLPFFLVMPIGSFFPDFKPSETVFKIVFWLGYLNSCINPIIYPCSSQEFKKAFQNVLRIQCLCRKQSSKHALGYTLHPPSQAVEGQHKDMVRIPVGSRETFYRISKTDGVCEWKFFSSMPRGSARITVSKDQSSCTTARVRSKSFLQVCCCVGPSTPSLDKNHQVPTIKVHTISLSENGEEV
POL4: DNA polymerase IV (POL4, Saccharomyces cerevisiae, UniProt P25615)
UniProt P25615, sequence (whole entry, looked up): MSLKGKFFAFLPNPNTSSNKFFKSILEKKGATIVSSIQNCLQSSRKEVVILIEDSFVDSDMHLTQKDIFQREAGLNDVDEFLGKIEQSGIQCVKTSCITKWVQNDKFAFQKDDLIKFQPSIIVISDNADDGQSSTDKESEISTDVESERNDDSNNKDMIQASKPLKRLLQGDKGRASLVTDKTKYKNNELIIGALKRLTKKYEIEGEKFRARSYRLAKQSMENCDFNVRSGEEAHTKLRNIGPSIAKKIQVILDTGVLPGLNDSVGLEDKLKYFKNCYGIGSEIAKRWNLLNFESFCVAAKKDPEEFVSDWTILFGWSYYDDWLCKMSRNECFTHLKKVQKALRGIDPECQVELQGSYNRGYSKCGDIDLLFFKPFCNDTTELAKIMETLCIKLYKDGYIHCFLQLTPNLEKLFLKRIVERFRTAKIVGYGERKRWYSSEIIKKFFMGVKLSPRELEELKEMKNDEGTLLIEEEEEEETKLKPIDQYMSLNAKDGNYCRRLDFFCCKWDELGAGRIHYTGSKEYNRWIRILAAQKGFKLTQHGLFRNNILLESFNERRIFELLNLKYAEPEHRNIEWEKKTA
HDAC8: Histone deacetylase 8 (HDAC8, Homo sapiens, UniProt Q9BY41)
UniProt Q9BY41, sequence (whole entry, looked up): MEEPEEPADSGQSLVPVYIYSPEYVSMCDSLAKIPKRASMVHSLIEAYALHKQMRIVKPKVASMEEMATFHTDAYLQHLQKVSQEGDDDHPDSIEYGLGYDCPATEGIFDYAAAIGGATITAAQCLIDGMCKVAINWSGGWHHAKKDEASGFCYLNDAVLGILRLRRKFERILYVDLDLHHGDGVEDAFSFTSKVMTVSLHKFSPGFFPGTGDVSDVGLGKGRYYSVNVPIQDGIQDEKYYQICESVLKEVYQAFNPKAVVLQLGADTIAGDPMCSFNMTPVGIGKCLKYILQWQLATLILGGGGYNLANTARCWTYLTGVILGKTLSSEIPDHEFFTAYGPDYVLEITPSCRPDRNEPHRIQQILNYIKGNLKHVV
UniProt Q06124, sequence (whole entry, looked up): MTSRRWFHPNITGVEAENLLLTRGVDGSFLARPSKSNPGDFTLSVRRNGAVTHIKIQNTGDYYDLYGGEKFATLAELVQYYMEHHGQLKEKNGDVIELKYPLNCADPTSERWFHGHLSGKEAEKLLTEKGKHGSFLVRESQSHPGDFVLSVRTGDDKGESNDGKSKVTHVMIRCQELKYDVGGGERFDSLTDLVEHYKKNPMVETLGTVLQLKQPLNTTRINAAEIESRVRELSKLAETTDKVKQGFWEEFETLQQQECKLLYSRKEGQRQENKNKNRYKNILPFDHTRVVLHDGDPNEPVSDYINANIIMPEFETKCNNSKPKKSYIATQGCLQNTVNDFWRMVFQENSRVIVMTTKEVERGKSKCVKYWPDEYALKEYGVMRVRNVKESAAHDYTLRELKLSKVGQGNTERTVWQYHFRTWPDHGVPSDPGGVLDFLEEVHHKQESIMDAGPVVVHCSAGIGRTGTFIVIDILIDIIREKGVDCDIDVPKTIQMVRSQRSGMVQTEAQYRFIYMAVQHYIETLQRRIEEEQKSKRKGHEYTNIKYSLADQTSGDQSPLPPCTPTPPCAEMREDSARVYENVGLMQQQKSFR
UniProt Q07440, sequence (whole entry, unmodified, looked up): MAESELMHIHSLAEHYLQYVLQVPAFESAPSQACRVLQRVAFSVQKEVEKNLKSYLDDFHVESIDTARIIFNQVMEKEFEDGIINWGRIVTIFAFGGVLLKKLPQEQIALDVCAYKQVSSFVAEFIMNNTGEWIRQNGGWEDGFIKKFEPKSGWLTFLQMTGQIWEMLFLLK
UniProt Q9H0K1, sequence (whole entry, looked up): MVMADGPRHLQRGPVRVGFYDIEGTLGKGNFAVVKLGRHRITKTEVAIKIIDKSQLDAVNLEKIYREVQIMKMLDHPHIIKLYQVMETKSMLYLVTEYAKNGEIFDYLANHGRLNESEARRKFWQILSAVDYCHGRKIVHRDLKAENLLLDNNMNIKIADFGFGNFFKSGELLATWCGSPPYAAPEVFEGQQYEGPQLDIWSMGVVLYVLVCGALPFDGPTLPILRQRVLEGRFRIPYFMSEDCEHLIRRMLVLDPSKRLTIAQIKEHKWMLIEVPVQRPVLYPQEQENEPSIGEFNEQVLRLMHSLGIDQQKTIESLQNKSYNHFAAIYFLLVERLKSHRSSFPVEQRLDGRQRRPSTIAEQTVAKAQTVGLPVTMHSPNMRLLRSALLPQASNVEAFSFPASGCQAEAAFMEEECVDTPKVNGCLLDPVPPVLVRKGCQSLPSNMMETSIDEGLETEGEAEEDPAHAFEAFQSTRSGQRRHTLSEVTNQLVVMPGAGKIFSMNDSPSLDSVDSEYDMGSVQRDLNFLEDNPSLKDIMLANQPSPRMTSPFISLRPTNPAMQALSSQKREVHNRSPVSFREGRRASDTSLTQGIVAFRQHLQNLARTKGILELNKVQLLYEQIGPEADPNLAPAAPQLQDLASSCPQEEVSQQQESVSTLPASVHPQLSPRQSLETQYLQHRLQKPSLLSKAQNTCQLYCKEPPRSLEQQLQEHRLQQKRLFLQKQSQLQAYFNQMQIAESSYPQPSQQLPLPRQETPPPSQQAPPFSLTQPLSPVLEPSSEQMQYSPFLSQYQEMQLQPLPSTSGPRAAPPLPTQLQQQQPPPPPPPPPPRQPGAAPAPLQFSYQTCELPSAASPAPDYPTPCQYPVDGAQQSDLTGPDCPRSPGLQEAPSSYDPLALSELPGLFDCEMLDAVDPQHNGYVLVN
UniProt Q8ILG2, sequence (whole entry, looked up): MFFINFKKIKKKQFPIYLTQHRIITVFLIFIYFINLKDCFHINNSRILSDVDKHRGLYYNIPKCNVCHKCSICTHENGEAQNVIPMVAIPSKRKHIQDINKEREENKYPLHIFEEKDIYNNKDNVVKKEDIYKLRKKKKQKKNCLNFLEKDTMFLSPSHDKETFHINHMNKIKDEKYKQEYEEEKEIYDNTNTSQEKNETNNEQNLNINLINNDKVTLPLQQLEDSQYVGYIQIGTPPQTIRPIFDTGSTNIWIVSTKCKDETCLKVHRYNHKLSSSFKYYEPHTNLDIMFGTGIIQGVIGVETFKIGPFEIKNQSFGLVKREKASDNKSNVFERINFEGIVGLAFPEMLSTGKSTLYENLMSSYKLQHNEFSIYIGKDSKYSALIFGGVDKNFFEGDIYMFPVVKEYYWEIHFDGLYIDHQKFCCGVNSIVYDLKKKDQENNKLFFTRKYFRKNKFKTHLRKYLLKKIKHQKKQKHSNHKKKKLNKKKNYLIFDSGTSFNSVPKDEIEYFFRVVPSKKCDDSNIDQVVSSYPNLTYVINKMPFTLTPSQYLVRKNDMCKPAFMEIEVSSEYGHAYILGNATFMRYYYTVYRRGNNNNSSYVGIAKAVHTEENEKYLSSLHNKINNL

| Compound | tested on | assay | setting | how to read | endpoint | result |
| --- | --- | --- | --- | --- | --- | --- |
| CN1CCC[C@@H]1C(=O)N[C@@H](Cc1ccc(-c2ccccc2)cc1)B(O)O | 20S proteasome (Plasmodium falciparum, UniProt A0A5K1K7U1+Q8IJT1) | inhibitor, progress curve | Ki as apparent Ki/2 | – | Ki | 1.4 nM |
| COc1ccc(CN2CCC(F)(F)C(COc3nc4ccccc4s3)C2)cc1F (centres unmarked) | DRD4 | ligand displacement, radioligand | cell membranes | – | Ki | 1660 nM |
| CCOC(=O)C(CC)(CCCSCCOCCOCCOCCOCCN)NC(=O)c1ccc(C2CC2)c(Cc2ccc(F)cc2)n1 (centres unmarked) | CNR1 | ligand displacement, radioligand | cell membranes | – | Ki | 164 nM |
| c1ccc(CN2COc3c(c4c(c5c3CN(Cc3ccccc3)CO5)CN(Cc3ccccc3)CO4)C2)cc1 | Bcl-2-related protein A1 (Mus musculus, UniProt Q07440, C113S/P104K) | ligand displacement, FP | – | – | Ki | 19700 nM |
| Cn1cnc2cc(CN3CCC(F)(F)C(COc4ccc(F)c(F)c4)C3)ccc21 (centres unmarked) | DRD4 | ligand displacement, radioligand | cell membranes | – | Ki | 4.8 nM |
| CCOC(=O)[C@](CC)(CCCSCCOCCOCCNC(=O)OC(C)(C)C)NC(=O)c1ccc(C2CC2)c(Cc2ccc(F)cc2)n1 | CNR1 | ligand displacement, radioligand | cell membranes | – | Ki | 163 nM |
| CNC[C@H](O)c1cccc(OCCOCC#Cc2cccc(Cn3c(-c4ccccc4)c(-c4ccccc4)c4c(=N)n([C@H]5CC[C@H](O)CC5)cnc43)c2)c1 | ADRA1A | ligand displacement, radioligand | cell membranes | – | Ki | 788 nM |
| O=C(OCCCCOP(=O)(O)OP(=O)(O)OP(=O)(O)O)c1ccccc1 | POL4 | DNA polymerase activity, inhibitor, [3H]dTTP incorporation | added: poly(dA)/oligo(dT) | – | Ki | 2200 nM |
| CCOC(=O)C(CC)(CCCSCCOCCOCCN)NC(=O)c1ccc(C2CC2)c(Cc2ccc(F)cc2)n1 (racemic) | CNR1 | ligand displacement, radioligand | cell membranes | – | Ki | 433 nM |
| Cc1ncsc1-c1ccc(C(C)NC(=O)C2CC(O)CN2C(=O)C(NC(=O)CCCCCCCCCCN2CCCC(Nc3ncc(Cl)c(Nc4ccccc4S(=O)(=O)C(C)C)n3)C2)C(C)(C)C)cc1 (centres unmarked) | 22Rv1 | RNA-seq, measured: ZSCAN29 mRNA | concentration not given | baseline: DMSO | log2 fold change | -1.44 |
| c1ccc(OC[C@H]2CN(CCN3CCc4ccccc43)CCO2)nc1 | DRD4 | ligand displacement, radioligand | – | – | Ki | 814 nM |
| COc1ccc(CN2CCC(F)(F)C(COc3cccc(Cl)n3)C2)cc1F (centres unmarked) | DRD4 | ligand displacement, radioligand | cell membranes | – | Ki | 210 nM |
| CC(C)(C)c1ccccc1OS(=O)(=O)Oc1cccc(C(=O)NO)c1 | HDAC8 | enzyme activity, inhibitor, fluorescence | – | – | Ki | 95 nM |
| CCC1(CC)CC(=O)N(C2CCOc3ccc(C(=O)NC4CC(C)(C)Oc5ccccc54)cc32)C(=N)N1 (centres unmarked) | Plasmepsin IX (Plasmodium falciparum, UniProt Q8ILG2) | enzyme activity, inhibitor, peptide cleavage | – | – | Ki | 0.733 ± 0.126 nM |
| Fc1ccc(OCC2CN(Cc3ncn4ccccc34)CCC2(F)F)cc1F (centres unmarked) | DRD4 | ligand displacement, radioligand | cell membranes | – | Ki | 2.69 nM |
| CCOC(=O)[C@@H](CCSC)NC(=O)c1ccc(C2CC2)c(Cc2ccc(F)cc2)n1 | CNR1 | ligand displacement, radioligand | cell membranes | – | Ki | 153 nM |
| C=C1C(=O)C2(C(=O)N3CCN(c4ccc(Br)cc4)CC3)CC(=O)CC1C2 (racemic) | PTPN11 (Homo sapiens, UniProt Q06124) | enzyme activity, covalent inhibitor | reversible binding constant, added: pNPP | – | Ki | 69700 nM |
| FC1(F)CCN(Cc2ncn3ccccc23)CC1COc1cccc(Cl)n1 (centres unmarked) | DRD4 | ligand displacement, radioligand | cell membranes | – | Ki | 1010 nM |
| O=C(NO)c1cc(F)cc(OS(=O)(=O)Oc2ccc(Br)cc2)c1 | HDAC8 | enzyme activity, inhibitor, fluorescence | – | – | Ki | 791 nM |
| Cc1cc(OCC2CN(Cc3ncn4ccccc34)CCC2(F)F)ccc1F (centres unmarked) | DRD4 | ligand displacement, radioligand | cell membranes | – | Ki | 6.5 nM |
| Cn1ccc2c(N3CCN(CCCCOc4ccc5c(c4)NC(=O)CC5)CC3)cccc21 | ADRB1 (Homo sapiens, UniProt P08588) | ligand displacement, radioligand | – | – | Ki | 431 nM |
| CCOc1cnc(C#N)cc1-c1ccn2nc(NC(=O)C3CC3)cc2c1 | SIK2 (Homo sapiens, UniProt Q9H0K1) | enzyme activity, inhibitor | – | – | Ki | 1.65 nM |
| CCOC(=O)C(CC)(CCCSCCOCCOCCOCCOCCNc1ccc([N+](=O)[O-])c2nonc12)NC(=O)c1ccc(C2CC2)c(Cc2ccc(F)cc2)n1 (centres unmarked) | CNR1 | ligand displacement, radioligand | cell membranes | – | Ki | 617 nM |
| Cn1cnc2cc(CN3CCC(F)(F)C(COc4cccc(C#N)c4)C3)ccc21 (centres unmarked) | DRD4 | ligand displacement, radioligand | cell membranes | – | Ki | 497 nM |
| O=C(NCCCOP(=O)(O)OP(=O)(O)OP(=O)(O)O)OCC1c2ccccc2-c2ccccc21 | POL4 | DNA polymerase activity, inhibitor, [3H]dTTP incorporation | added: poly(dA)/oligo(dT) | – | Ki | 250 nM |
| CC(C)c1ccccc1OS(=O)(=O)Oc1cccc(C(=O)NO)c1 | HDAC8 | enzyme activity, inhibitor, fluorescence | – | – | Ki | 208 nM |
| C[C@H]1Cc2ccccc2N1C(=O)NCCCCN(C)[C@@H]1Cc2cccc3[nH]c(=O)n(c23)C1 | DRD4 | binding | – | – | Ki | 25.5 ± 3.18 nM |
| Fc1ccc(OCC2CN(Cc3cn4ccccc4n3)CCC2(F)F)cc1 (centres unmarked) | DRD4 | ligand displacement, radioligand | – | – | Ki | 73 nM |
| CC1Cc2ccccc2N1C(=O)CN1CCN(c2ccccc2)CC1 (centres unmarked) | ADRA1A | ligand displacement, radioligand | – | – | Ki | 2010 nM |

A few entries again:
| Compound | tested on | assay | setting | how to read | endpoint | result |
| --- | --- | --- | --- | --- | --- | --- |
| Cc1cc(OCC2CN(Cc3ncn4ccccc34)CCC2(F)F)ccc1F (centres unmarked) | DRD4 | ligand displacement, radioligand | cell membranes | – | Ki | 6.5 nM |
| Cc1ncsc1-c1ccc(C(C)NC(=O)C2CC(O)CN2C(=O)C(NC(=O)CCCCCCCCCCN2CCCC(Nc3ncc(Cl)c(Nc4ccccc4S(=O)(=O)C(C)C)n3)C2)C(C)(C)C)cc1 (centres unmarked) | 22Rv1 | RNA-seq, measured: ZSCAN29 mRNA | concentration not given | baseline: DMSO | log2 fold change | -1.44 |
| O=C(NCCCOP(=O)(O)OP(=O)(O)OP(=O)(O)O)OCC1c2ccccc2-c2ccccc21 | POL4 | DNA polymerase activity, inhibitor, [3H]dTTP incorporation | added: poly(dA)/oligo(dT) | – | Ki | 250 nM |
| c1ccc(CN2COc3c(c4c(c5c3CN(Cc3ccccc3)CO5)CN(Cc3ccccc3)CO4)C2)cc1 | Bcl-2-related protein A1 (Mus musculus, UniProt Q07440, C113S/P104K) | ligand displacement, FP | – | – | Ki | 19700 nM |
| O=C(NO)c1cc(F)cc(OS(=O)(=O)Oc2ccc(Br)cc2)c1 | HDAC8 | enzyme activity, inhibitor, fluorescence | – | – | Ki | 791 nM |
